Measurements gathered from unrelated publications.
Each line is one published result; not all experiments were run side by side. Values joined by “and” are separate records of one study, mostly repeats; a detail may differ. Numbers after ± are the reported error. Bridges are numbered along the chain shown (N, C = ends). Where no end group is shown, it is not given here.
T1: B2m/H2-D1 single-chain trimer MHC part (Mus musculus); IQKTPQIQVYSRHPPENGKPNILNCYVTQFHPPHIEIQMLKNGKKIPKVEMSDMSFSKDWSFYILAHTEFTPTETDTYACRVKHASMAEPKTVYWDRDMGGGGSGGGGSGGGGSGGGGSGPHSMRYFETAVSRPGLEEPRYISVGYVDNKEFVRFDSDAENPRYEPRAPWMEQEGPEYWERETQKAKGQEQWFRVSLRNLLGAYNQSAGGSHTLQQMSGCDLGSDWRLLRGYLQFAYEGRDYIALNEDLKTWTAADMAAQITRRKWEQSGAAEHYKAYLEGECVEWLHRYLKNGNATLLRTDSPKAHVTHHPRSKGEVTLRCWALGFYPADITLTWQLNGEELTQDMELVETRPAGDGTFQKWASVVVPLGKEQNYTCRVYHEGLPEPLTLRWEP
B1: UGT3A2 Y74N (Homo sapiens, UniProt Q3SY77); chain AKILTISTVGGSHYLLMDRVSQILQDHGHNVTMLNHKRGPFMPDFKKEEKSNQVISWLAPEDHQREFKKSFDFFLEETLGGRGKFENLLNVLEYLALQCSHFLNRKDIMDSLKNENFDMVIVETFDYCPFLIAEKLGKPFVAILSTSFGSLEFGLPIPLSYVPVFRSLLTDHMDFWGRVKNFLMFFSFCRRQQHMQSTFDNTIKEHFTEGSRPVLSHLLLKAELWFINSDFAFDFARPLLPNTVYVGGLMEKPIKPVPQDLENFIAKFGDSGFVLVTLGSMVNTCQNPEIFKEMNNAFAHLPQGVIWKCQCSHWPKDVHLAANVKIVDWLPQSDLLAHPSIRLFVTHGGQNSIMEAIQHGVPMVGIPLFGDQPENMVRVEAKKFGVSIQLKKLKAETLALKMKQIMEDKRYKSAAVAASVILRSHPLSPTQRLVGWIDHVLQTGGATHLKPYVFQQPWHEQYLLDVFVFLLGLTLGTLWLCGKLLGMAVWWLRGARKVKET
B2: UGT1A9 (Homo sapiens, UniProt O60656); chain GKLLVVPMDGSHWFTMRSVVEKLILRGHEVVVVMPEVSWQLGRSLNCTVKTYSTSYTLEDLDREFKAFAHAQWKAQVRSIYSLLMGSYNDIFDLFFSNCRSLFKDKKLVEYLKESSFDAVFLDPFDNCGLIVAKYFSLPSVVFARGILCHYLEEGAQCPAPLSYVPRILLGFSDAMTFKERVRNHIMHLEEHLLCHRFFKNALEIASEILQTPVTEYDLYSHTSIWLLRTDFVLDYPKPVMPNMIFIGGINCHQGKPLPMEFEAYINASGEHGIVVFSLGSMVSEIPEKKAMAIADALGKIPQTVLWRYTGTRPSNLANNTILVKWLPQNDLLGHPMTRAFITHAGSHGVYESICNGVPMVMMPLFGDQMDNAKRMETKGAGVTLNVLEMTSEDLENALKAVINDKSYKENIMRLSSLHKDRPVEPLDLAVFWVEFVMRHKGAPHLRPAAHDLTWYQYHSLDVIGFLLAVVLTVAFITFKCCAYGYRKCLGKKGRVKKAHKSKTH

Substance | tested on | assay | test system | setting | how to read | quantity | value
N=C(N)NCCC[C@@H]1NC(=O)[C@H](CSC2CC(=O)N(CCNC(=O)CN3CCN(CC(=O)O)CCN(CC(=O)O)CCN(CC(=O)O)CC3)C2=O)NC(=O)[C@H](CCCCN)NC(=O)[C@@H](Cc2ccc(O)cc2)NC(=O)[C@H](CC(=O)O)NC(=O)CNC1=O (stereo partly drawn) [gallium-68 labelled] |  |  | BALB/c nude mice, MGC-803 xenograft, tumour | 3 h post-injection, added: unlabelled HS-RGD 50 mg/kg |  | tumour uptake | 1.53 ± 0.4 %ID/g
B1 (UGT3A2 Y74N) | O=c1ccn([C@@H]2O[C@H](CO[P@@](=O)(O)O[P@@](=O)(O)O[C@H]3O[C@H](CO)[C@@H](O)[C@H](O)[C@H]3O)[C@@H](O)[C@H]2O)c(=O)[nH]1 | steady-state kinetics |  | pH 7.4, 37 °C, not purified, added: 1-OH-pyrene 16 µM, MgCl2 10 mM, alamethicin |  | Vmax | 4.3e-05 µmol/min/mg
COc1cccc2c1C(=O)c1c(O)c3c(c(O)c1C2=O)C[C@@](O)(C(=O)CO)C[C@@H]3O[C@H]1C[C@H](NC(=O)[C@@H]2CCCN2C(=O)CN)[C@H](O)[C@H](C)O1 |  |  | mouse, E0771 tumour-bearing, heart | intravenous, 92 µmol/kg PhAc-ALGP-Dox |  | Tmax | 5 min
CPSSSREKC (disulfide 1-9 (inferred)) (disulfide) | CuFi-1 | flow cytometry | nanoparticles after CF sputum permeation | 2 h, 37 °C | baseline: unmodified carboxylated nanoparticles | cell uptake | 2.6 fold
TAPDNLGYM (Tyrp1 peptide residues 455-463 A9M) | T1, B2m/H2-D1 single-chain trimer MHC part (Mus musculus) | differential scanning fluorimetry | peptide |  |  | Tm | 45.5 °C
CC(C)[C@H](NC(=O)[C@@H]1CCCN1C(=O)[C@H](CCCNC(=N)N)NC(=O)[C@H](CS)NC(=O)[C@H](Cc1c[nH]c2ccccc12)NC(=O)[C@H](CCCNC(=N)N)NC(=O)[C@@H](Cc1ccccc1)NC(=O)[C@H](Cc1c[nH]cn1)NC(=O)[C@H](CCC(=O)O)NC(=O)[C@H](CS)NC(=O)[C@H](CS)NC(=O)[C@H](CCCCN)NC(=O)[C@@H]1CC(=O)N[C@@H](CCCNC(=N)N)C(=O)N[C@@H](C)C(=O)N[C@@H](CC(=O)O)C(=O)N[C@H](Cc2ccc(O)cc2)C(=O)N1)C(N)=O [technetium-99m labelled] |  |  | C57 mice, muscle | intravenous, 0.037 MBq, 2 h |  | tissue uptake | 0.14 ± 0.08 %ID/g
PRL (Homo sapiens, UniProt P01236) |  | NMR, refers to: His195 |  | 35 °C, numbering of the source |  | pKa | 5.91
Insulin human |  |  | rat, dorsal cortex | intranasal, 20 µg per nostril, 120 min |  | brain concentration | 0 pg/mg tissue
B2 (UGT1A9) | COc1ccc([C@@H]2CC(=O)c3c(O)cc(O)cc3O2)cc1O | steady-state kinetics |  | pH 7.4, 37 °C |  | Vmax/Km | 407 µL/min/mg and 977 µL/min/mg

Some of these lines once more:
Substance | tested on | assay | test system | setting | how to read | quantity | value
COc1cccc2c1C(=O)c1c(O)c3c(c(O)c1C2=O)C[C@@](O)(C(=O)CO)C[C@@H]3O[C@H]1C[C@H](NC(=O)[C@@H]2CCCN2C(=O)CN)[C@H](O)[C@H](C)O1 |  |  | mouse, E0771 tumour-bearing, heart | intravenous, 92 µmol/kg PhAc-ALGP-Dox |  | Tmax | 5 min
